{"data": "Measured values pooled from the literature", "note": "Compare with care: the assays were run in different laboratories. ± gives the spread as reported."}
{"Structure (SMILES)": "[O-][S+]1CCCCS1 (stereo not drawn)", "target or system": "Superoxide dismutase [Cu-Zn] (SOD1, Homo sapiens, UniProt P00441, G94A)", "assay": "LC-MS", "test system": "brain homogenate", "conditions": "10 µM, 1 h, 37 °C", "quantity": "SOD1 monomer fraction", "result": "98.1%"}
{"Structure (SMILES)": "O=C(NCC1CCOCC1)c1ccc(C2CCCCC2)cc1", "assay": "liver microsome stability", "test system": "rat liver microsomes", "conditions": "1 µM", "quantity": "hepatic clearance", "result": "48 mL/min/kg"}
{"Structure (SMILES)": "CC(C)C[C@@H]1NC(=O)CNC(=O)[C@H](CC(C)C)NC(=O)[C@@H]2CCCN2C(=O)[C@H](CC(=O)O)NC(=O)[C@H](Cc2ccc(O)cc2)NC(=O)CNC(=O)[C@@H](Cc2ccc(O)cc2)NC(=O)CSC[C@@H](C(N)=O)NC(=O)[C@H](C)NC(=O)[C@H](Cc2ccccc2)NC(=O)[C@H](Cc2ccc(O)cc2)NC(=O)[C@H](CCCCN)NC1=O", "target or system": "Vacuolar protein sorting-associated protein 29 (VPS29, Homo sapiens, UniProt Q9UBQ0)", "assay": "binding, ITC", "conditions": "25 °C, protein alone", "quantity": "-TΔS", "result": "6.4 ± 1.2 kcal/mol"}
{"Structure (SMILES)": "COc1cc(Nc2ncc3c(n2)-c2ccc(Cl)cc2C(c2c(F)cccc2OC)=NC3)ccc1C(=O)O", "target or system": "STK23", "assay": "kinase activity", "conditions": "1 µM", "quantity": "remaining activity", "result": "97%"}
{"Structure (SMILES)": "C[C@@H]1CCN(C(=O)CCl)[C@@H](C(N)=O)C1", "target or system": "human NEDD9 full length", "assay": "LC-MS peptide mapping, item: Cys18", "conditions": "50 µM, 4 h", "quantity": "cysteine occupancy", "result": "28.9%"}
{"Structure (SMILES)": "CCN1CCC[C@H]1CNC(=O)c1c(O)c(Cl)cc(Cl)c1OC", "target or system": "Mas-related G-protein coupled receptor member X2 (MRGPRX2, Homo sapiens, UniProt Q96LB1)", "assay": "β-arrestin recruitment, TANGO luminescence", "conditions": "concentration not given", "how to read": "reference: basal luminescence", "quantity": "log2 fold change", "result": -0.231}
{"Structure (SMILES)": "CC[C@H](C)[C@@H]1NC(=O)[C@H](C)NC(=O)[C@H]([C@@H](C)CC)NC(=O)[C@H](CCC(N)=O)NC(=O)[C@H](C)NC(=O)[C@H](CCCNC(=N)N)NC(=O)[C@H](C(C)C)NC(=O)[C@H](CC(C)C)NC(=O)[C@H](CCC(=O)O)NC(=O)[C@H](CCCNC(=N)N)NC(=O)CNC(=O)[C@@H](NC(=O)[C@H](CC(C)C)NC(=O)[C@H](CCCCN)NC(=O)[C@@H](NC(=O)[C@@H](NC(=O)[C@H](CCC(=O)O)NC(=O)[C@H](CCC(=O)O)NC(=O)[C@H](CCSC)NC(=O)[C@H](Cc2c[nH]c3ccccc23)NC(=O)[C@H](CO)NC(=O)[C@@H](N)CC(=O)O)C(C)C)[C@@H](C)CC)CSSC[C@@H]2NC(=O)[C@@H](NC(=O)[C@H](CCCCN)NC(=O)[C@H](CC(N)=O)NC(=O)[C@H](C)NC(=O)[C@H](CC(C)C)NC(=O)[C@H](C)NC(=O)[C@H](CO)NC(=O)[C@H](Cc3ccc(O)cc3)NC(=O)[C@H](CC(C)C)NC(=O)[C@H](CCC(N)=O)NC(=O)c3ccc(-c4c5ccc(=[N+](C)C)cc-5oc5cc(N(C)C)ccc45)c(C(=O)[O-])c3)CSSC[C@H](NC(=O)CNC(=O)[C@H](C(C)C)NC(=O)[C@H](Cc3c[nH]cn3)NC2=O)C(=O)N[C@@H]([C@@H](C)O)C(=O)N[C@@H](CCCCN)C(=O)N[C@@H](CCCNC(=N)N)C(=O)N[C@@H](CO)C(=O)N[C@@H](CC(C)C)C(=O)N[C@@H](C)C(=O)N[C@@H](CCCNC(=N)N)C(=O)N[C@@H](Cc2ccccc2)C(=O)N[C@H](C(=O)O)CSSC[C@@H](C(=O)NCC(=O)N[C@@H](CCSC)C(=O)N[C@@H](CO)C(=O)N[C@H](C(=O)N[C@@H](Cc2c[nH]c3ccccc23)C(=O)N[C@@H](CO)C(=O)O)[C@@H](C)O)NC1=O", "target or system": "Relaxin receptor 1 (RXFP1, Homo sapiens, UniProt Q9HBX9)", "assay": "binding, NanoBRET", "conditions": "with: relaxin 100 nM", "quantity": "dissociation plateau", "result": "26.9%"}
{"Structure (SMILES)": "NCC[C@H](O)C(=O)N[C@@H]1C[C@H](N)[C@@H](O[C@H]2O[C@H](CN)[C@@H](O)[C@H](O)[C@H]2O)[C@H](O)[C@H]1O[C@H]1O[C@H](CO)[C@@H](O)[C@H](N)[C@H]1O", "target or system": "Albumin (ALB, Bos taurus, UniProt P02769)", "assay": "tryptophan fluorescence quenching", "conditions": "10 to 60 µM, 289 K", "quantity": "Stern-Volmer quenching constant", "result": "2.17 10³ M⁻¹"}
{"Structure (SMILES)": "OC[C@H]1OC(O)[C@H](O)[C@@H](O)[C@@H]1O (stereo partly drawn)", "target or system": "Hexokinase-3 (HK3, Homo sapiens, UniProt P52790, D264A/R265A)", "assay": "substrate inhibition", "conditions": "mutant D264A/R265A, partial substrate inhibition model, with: ATP 20 mM", "quantity": "kcat", "result": "49 ± 24 s⁻¹"}
{"Structure (SMILES)": "CC(=O)N1CC(C(=O)Nc2ccc([C@H]3[C@@H](F)[C@@H](F)C[C@@H](F)[C@H]3F)cc2)C1", "assay": "liver microsome stability", "test system": "rat liver microsomes", "conditions": "1 µM", "quantity": "hepatic clearance", "result": "6.1 mL/min/kg"}
{"Structure (SMILES)": "CC[C@H](C)[C@H](NC(=O)[C@H](Cc1ccccc1)NC(=O)[C@H](CCC(=O)O)NC(=O)[C@H](CCCNC(=N)N)NC(=O)[C@H](C)NC(=O)[C@H](C)NC(=O)[C@H](CCC(N)=O)NC(=O)[C@H](CCC(=O)O)NC(=O)[C@H](CCC(=O)O)NC(=O)[C@H](CC(C)C)NC(=O)[C@H](Cc1ccc(O)cc1)NC(=O)[C@H](CO)NC(=O)[C@H](CO)NC(=O)[C@@H](NC(=O)[C@H](CC(=O)O)NC(=O)[C@H](CO)NC(=O)[C@@H](NC(=O)[C@H](Cc1ccccc1)NC(=O)[C@@H](NC(=O)CNC(=O)[C@H](CCC(=O)O)NC(=O)[C@H](C)NC(=O)CCc1cnc[nH]1)[C@@H](C)O)[C@@H](C)O)C(C)C)C(=O)N[C@@H](C)C(=O)N[C@@H](Cc1c[nH]c2ccccc12)C(=O)N[C@@H](CC(C)C)C(=O)N[C@H](C(=O)N[C@@H](CCCNC(=N)N)C(=O)NCC(=O)N[C@@H](CCCNC(=N)N)C(=O)N[C@@H](CCCCNC(=O)COCCOCCNC(=O)COCCOCCNC(=O)CC[C@H](NC(=O)CCCCCCCCCCCCCCCCC(=O)O)C(=O)O)C(=O)NCC(=O)NCC(=O)N[C@@H](CO)C(=O)N[C@@H](CCSC)C(=O)N[C@H](C(=O)N[C@@H](CCCCNc1c(NCCCCCN(O)C(=O)CCC(=O)NCCCCCN(O)C(=O)CCC(=O)NCCCCCN(O)C(C)=O)c(=O)c1=O)C(=O)O)C(C)C)C(C)C", "target or system": "Glucagon-like peptide 1 receptor (GLP1R, Homo sapiens, UniProt P43220)", "assay": "agonist, CRE luciferase reporter", "test system": "BHK cells", "conditions": "Zr-loaded DFO conjugate, with: 1% HSA", "how to read": "reference: parent peptide", "quantity": "fold potency loss", "result": 1.2}
{"Structure (SMILES)": "c1ccc(C(NCc2cccnc2)(c2ccccc2)c2ccccc2)cc1", "target or system": "Potassium voltage-gated channel subfamily KQT member 1 (KCNQ1, Homo sapiens, UniProt P51787)", "assay": "whole-cell patch clamp", "conditions": "300 pM", "how to read": "reference: control", "quantity": "current decay increase", "result": "2 fold"}
{"note": "Repeated from above:"}
{"Structure (SMILES)": "NCC[C@H](O)C(=O)N[C@@H]1C[C@H](N)[C@@H](O[C@H]2O[C@H](CN)[C@@H](O)[C@H](O)[C@H]2O)[C@H](O)[C@H]1O[C@H]1O[C@H](CO)[C@@H](O)[C@H](N)[C@H]1O", "target or system": "Albumin (ALB, Bos taurus, UniProt P02769)", "assay": "tryptophan fluorescence quenching", "conditions": "10 to 60 µM, 289 K", "quantity": "Stern-Volmer quenching constant", "result": "2.17 10³ M⁻¹"}
